Measurements gathered from unrelated publications.
Parts stem from different laboratories: compare values within a part only.
Chain of UniProt P07339 (whole entry, looked up): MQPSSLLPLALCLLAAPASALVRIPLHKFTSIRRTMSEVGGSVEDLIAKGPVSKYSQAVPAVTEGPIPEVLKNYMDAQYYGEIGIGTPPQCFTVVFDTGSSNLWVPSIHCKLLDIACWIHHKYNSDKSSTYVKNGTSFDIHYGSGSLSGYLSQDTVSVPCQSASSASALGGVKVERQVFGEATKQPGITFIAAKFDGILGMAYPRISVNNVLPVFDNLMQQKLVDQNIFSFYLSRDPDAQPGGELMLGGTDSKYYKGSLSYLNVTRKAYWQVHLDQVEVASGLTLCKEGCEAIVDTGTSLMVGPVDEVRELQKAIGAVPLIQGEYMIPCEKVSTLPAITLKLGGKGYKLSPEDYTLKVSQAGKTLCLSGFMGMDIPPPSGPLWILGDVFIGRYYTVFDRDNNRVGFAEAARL

Sample 1
Species: mouse, PTZ-induced seizures
Route: oral
Dose: 20 mg/kg
Reference: valproic acid 300 mg/kg
Endpoint: relative protection
Cc1ccc(NCC(=O)N/N=C/c2cc(Br)ccc2OCC(=O)O)cc1: 66.7%
O=C(O)COc1ccc(Br)cc1/C=N/NC(=O)c1ccc(Cl)cc1: 150%
Cc1ccc(C(=O)N/N=C/c2cc(Br)ccc2OCC(=O)O)cc1: 133%
O=C(O)COc1ccc(Br)cc1C=NNC(=O)Cc1ccccc1 (mixture of isomers): 167%

Other studies, line by line
GRM2: Metabotropic glutamate receptor 2 (GRM2, Homo sapiens, UniProt Q14416)
Chain of UniProt Q14416 (whole entry, looked up): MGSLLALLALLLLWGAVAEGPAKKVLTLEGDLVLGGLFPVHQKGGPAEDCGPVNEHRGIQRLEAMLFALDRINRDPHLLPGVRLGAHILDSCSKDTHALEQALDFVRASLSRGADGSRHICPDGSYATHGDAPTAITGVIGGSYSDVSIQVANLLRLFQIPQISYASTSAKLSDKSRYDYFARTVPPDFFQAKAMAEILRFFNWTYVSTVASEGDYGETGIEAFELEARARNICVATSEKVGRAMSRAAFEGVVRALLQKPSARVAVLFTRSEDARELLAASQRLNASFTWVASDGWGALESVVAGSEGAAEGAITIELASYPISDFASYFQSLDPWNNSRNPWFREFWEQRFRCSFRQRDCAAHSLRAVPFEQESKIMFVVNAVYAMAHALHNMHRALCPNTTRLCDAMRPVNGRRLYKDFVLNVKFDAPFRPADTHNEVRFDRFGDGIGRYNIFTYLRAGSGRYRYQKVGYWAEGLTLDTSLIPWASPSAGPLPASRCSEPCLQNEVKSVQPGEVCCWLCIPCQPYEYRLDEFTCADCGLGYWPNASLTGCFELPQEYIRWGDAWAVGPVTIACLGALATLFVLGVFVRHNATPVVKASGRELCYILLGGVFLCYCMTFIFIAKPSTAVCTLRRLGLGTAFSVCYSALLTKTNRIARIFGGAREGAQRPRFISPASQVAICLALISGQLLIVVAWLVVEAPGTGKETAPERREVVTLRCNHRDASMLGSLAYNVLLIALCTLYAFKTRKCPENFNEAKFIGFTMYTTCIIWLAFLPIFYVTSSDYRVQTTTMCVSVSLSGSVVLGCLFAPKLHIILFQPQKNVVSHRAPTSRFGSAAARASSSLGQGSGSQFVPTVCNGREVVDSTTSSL
TP53 M133L/N239Y/N268D/V203A/Y220C DNA-binding domain: Cellular tumor antigen p53, DNA-binding domain (TP53, Homo sapiens, UniProt P04637, M133L/N239Y/N268D/V203A/Y220C)
COc1ccc(CNc2ccc(-c3ccn4c(CC5CC5)nnc4c3C(F)(F)F)cc2F)cn1 — EC50 (GRM2; GTPγS binding, positive allosteric modulator; with: EC20 glutamate): 14 nM
Cc1cc(C#N)cnc1Cl — delta Tm (Cellular tumor antigen p53, DNA-binding domain (TP53, Homo sapiens, UniProt P04637, M133L/N239Y/N268D/V203A); DSF; 1 mM, up to 24 h): no effect
CCCCn1ccn2c(-c3ccc(NC4CCOCC4)c(Cl)c3)c(C)nc2c1=O — EC50 (GRM2; GTPγS binding, positive allosteric modulator; with: EC20 glutamate): 72 nM
CCOC(=O)c1cc(C#N)c(Cl)nc1Cl — ΔTm (TP53 M133L/N239Y/N268D/V203A/Y220C DNA-binding domain; differential scanning fluorimetry; 250 µM, 24 h): 2.57 °C
Cc1ccc(Oc2ccc(-c3ccn4c(CC5CC5)nnc4c3C(F)(F)F)cc2F)c(C)n1 — brain concentration (rat Sprague Dawley male, brain; subcutaneous, 10 mg/kg, 1 h): 464 ng/g
CCc1nc(C#N)c(Cl)nc1Cl — delta Tm (TP53 M133L/N239Y/N268D/V203A/Y220C DNA-binding domain; DSF; 1 mM, 30 min, 20 °C): -1.3 °C
CC(C)C[C@H](NC(=O)[C@@H](NC(=O)[C@H](CCONC(=N)N)NC(=O)OCc1ccccc1)C(C)C)[C@@H](O)CC(=O)NCCc1ccccc1 — IC50 (Cathepsin D (CTSD, Homo sapiens, UniProt P07339); enzyme activity, inhibitor): 520 nM
Cc1nc(Cl)cnc1C#N — delta Tm (TP53 M133L/N239Y/N268D/V203A/Y220C DNA-binding domain; DSF; 1000 µM, 24 h): 2.15 °C
Cc1cc(Oc2ccc(-c3ccn4c(CC5CC5)nnc4c3C(F)(F)F)cc2F)ccn1 — EC50 (GRM2; GTPγS binding, positive allosteric modulator; with: EC20 glutamate): 55 nM

Repeated from above (sample 1):
Cc1ccc(C(=O)N/N=C/c2cc(Br)ccc2OCC(=O)O)cc1: 133%
O=C(O)COc1ccc(Br)cc1C=NNC(=O)Cc1ccccc1 (mixture of isomers): 167%
